Measured values of several laboratories.
Each line is one published result; not all experiments were run side by side. ± gives the spread as reported. In brackets after ≈: the same amount, converted by molar mass.

Compound	organism	test	test system	conditions	how to read	endpoint	result
CO[C@H]1/C=C/O[C@@]2(C)Oc3c(C)c(O)c4c(c3C2=O)C2=NC3(CCN(CC(C)C)CC3)NC2=C(NC(=O)/C(C)=C\C=C\[C@H](C)[C@H](O)[C@@H](C)[C@@H](O)[C@@H](C)[C@H](OC(=O)c2cccc(C)c2)[C@@H]1C)C4=O	Mycobacteroides abscessus		ATCC 19977		relative to: wild type over arr deletion	MIC ratio	1.2
CCCSC[C@H]1CN(Cc2c[nH]c3c(N)ncnc23)C[C@@H]1O	Helicobacter pylori	microbial growth				IC90	10 ng/mL (≈ 0.0311 µM)
CO[C@H]1/C=C/O[C@@]2(C)Oc3c(C)c(O)c4c(c3C2=O)C2=NC3(CCN(CC(C)C)CC3)NC2=C(NC(=O)/C(C)=C\C=C\[C@H](C)[C@H](O)[C@@H](C)[C@@H](O)[C@@H](C)[C@H](OC(=O)c2cccc(F)c2)[C@@H]1C)C4=O	Mycobacteroides abscessus		ATCC 19977		relative to: wild type over arr deletion	MIC ratio	0.6
CCn1c(SCc2cccc(OC)c2)nc2cc3ccccc3cc2c1=O	coxsackievirus B4	plaque	BGM	concentration not given, non-toxic dose		virus titre reduction	0%
COc1ccc(-n2c(SCc3ccc(S(N)(=O)=O)cc3)nnc2[C@H](Cc2ccccc2)NC(=O)Cc2c(C)[nH]c3ccccc23)cc1	HIV-2		MT-4, wild type		relative to: CC50 over EC50	selectivity index	> 55
CN[C@@H]1[C@H](O)[C@H](NC)[C@H]2O[C@]3(O)[C@H](O[C@@H]2[C@H]1O)O[C@H](C)C[C@@]3(O)CNCCc1ccc(F)cc1	Mycobacteroides abscessus	LC-MS/MS, item: intracellular compound	ATCC 19977	100 µM, 30 min	relative to: compound over spectinomycin	intracellular accumulation ratio	8.4 fold
CCCCCCCCCC(=O)N[C@@H](Cc1c[nH]c2ccccc12)C(=O)N[C@H](CC(N)=O)C(=O)N[C@@H](CC(=O)O)C(=O)N[C@@H]1C(=O)NCC(=O)N[C@@H](CCCNC(=O)OC2/C=C/CCCCC2)C(=O)N[C@@H](CC(=O)O)C(=O)N[C@H](C)C(=O)N[C@@H](CC(=O)O)C(=O)NCC(=O)N[C@H](CO)C(=O)N[C@@H]([C@H](C)CC(=O)O)C(=O)N[C@@H](CC(=O)c2ccccc2N)C(=O)O[C@@H]1C (stereo partly shown)	Staphylococcus aureus	isothermal microcalorimetry	MRSA	24 h, 37 °C, TAG gel		minimum heat inhibitory concentration	1 µg/mL
CCOC(=O)C1=C(C)NC2=C(C(=O)CC(C)(C)C2)C1c1ccc(OCC(=O)NN=Cc2cccc([N+](=O)[O-])c2)cc1OCC(=O)NN=Cc1cccc([N+](=O)[O-])c1 (stereo not shown)	Proteus vulgaris		FMC II	concentration not given, 24 h, 37 °C		inhibition zone diameter	3.3 ± 0.1 mm
CC(C)(C)NCC(SS(=O)(=O)O)c1ccccc1 (stereo not shown)	Schistosoma mansoni		mice	oral, 600 mg/kg single dose, 42 days post-infection	relative to: vehicle	female worm burden reduction	100%
CC1(CCCCCCCCCCCCCCOCCCOP(=O)(O)CO[C@H](CO)Cn2ccc(N)nc2=O)COC1	Murid betaherpesvirus 1	qPCR	MEF, Smith		relative to: CC50 over EC50	selectivity index	> 3
CC[C@H](C)[C@H](NC(=O)[C@H](CCC(N)=O)NC(=O)[C@H](Cc1ccccc1)NC(=O)[C@H](CO)NC(=O)[C@H](CS)NC(=O)[C@H](Cc1ccccc1)NC(=O)[C@H](C)NC(=O)[C@H](CCCCN)NC(=O)[C@H](CCCNC(=N)N)NC(=O)[C@H](CCCCN)NC(=O)[C@H](CC(C)C)NC(=O)[C@H](Cc1c[nH]cn1)NC(=O)[C@@H]1CCCN1C(=O)[C@H](CCC(N)=O)NC(=O)[C@H](CC(=O)O)NC(=O)[C@H](Cc1c[nH]cn1)NC(=O)[C@H](Cc1ccccc1)NC(=O)[C@@H]1CCCN1C(=O)[C@H](CS)NC(=O)[C@H](CC(N)=O)NC(=O)[C@H](CC(=O)O)NC(=O)[C@H](CC(C)C)NC(=O)[C@H](CC(N)=O)NC(=O)[C@@H]1CCCN1C(=O)[C@H](CCC(N)=O)NC(=O)[C@@H](NC(=O)[C@H](CCCCN)NC(=O)[C@@H](NC(=O)[C@H](CS)NC(=O)[C@@H](NC(=O)[C@@H](NC(=O)[C@H](CCCNC(=N)N)NC(=O)CN)[C@@H](C)O)[C@@H](C)O)[C@@H](C)O)[C@@H](C)O)C(=O)N[C@@H](Cc1ccc(O)cc1)C(=O)N[C@@H](C)C(=O)N[C@H](C(=O)N1CCC[C@H]1C(=O)N[C@@H](Cc1c[nH]c2ccccc12)C(=O)N[C@@H](CCC(N)=O)C(=O)NCC(=O)N[C@H](C(=O)N[C@@H](CCSC)C(=O)N[C@H](C(=O)N[C@@H](CC(C)C)C(=O)N[C@@H](CO)C(=O)N[C@@H](CCCCN)C(=O)N[C@@H](CO)C(=O)N[C@H](C(=O)N[C@@H](CS)C(=O)N[C@@H](CCC(N)=O)C(=O)N[C@@H](CC(=O)O)C(=O)N[C@@H](C)C(=O)O)[C@@H](C)O)[C@@H](C)O)[C@@H](C)O)C(C)C	HIV-2	viral entry	GHOST-GPR15, ROD10			maximal inhibition	≤ 80%
CC=C(C)C(=O)OC1CC2C(C=C(C)C3C(OC(C)=O)CC(=O)C13C)OC(=O)C2C (stereo not shown)	Helicobacter pylori	broth microdilution		concentration not given		antibacterial activity	inactive
COc1c(C)c(O)c(C)c(O)c1C(=O)C1C(C=C(C)C=O)C=C(C)CC1c1ccccc1 (stereo not shown)	human respiratory syncytial virus	viral replication, CPE reduction	HEp-2, A2			IC50	50 µM
C[C@H]1COc2c(N3CCN(C)CC3)c(F)cc3c(=O)c(C(=O)N[C@@H](CCCNC(=N)N)C(=O)N[C@@H](Cc4ccc(-c5ccccc5)cc4)C(=O)N[C@@H](CCCNC(=N)N)C(=O)N[C@@H](Cc4ccc(-c5ccccc5)cc4)C(=O)N[C@@H](CCCNC(=N)N)C(N)=O)cn1c23	Enterococcus faecium	broth microdilution	ATCC 2316		relative to: MIC of unconjugated components	fold MIC improvement	10 fold
CC1(CCCCCCCCCCOCCCOP(=O)(O)CO[C@H](CO)Cn2ccc(N)nc2=O)COC1	human gammaherpesvirus 8	qPCR	BCBL-1		relative to: CC50 over EC50	selectivity index	> 94
CCCCCCC[C@@H](CC(=O)O)OC(=O)C[C@@H](CCCCCCC)O[C@@H]1O[C@@H](C)[C@H](O)[C@@H](O)[C@H]1O	Aliivibrio fischeri	bioluminescence reduction, Microtox		15 min		EC50	58.2 ± 13.9 µM
OC[C@H]1O[C@@H](n2cnc3c(SCc4ccccc4)nc(Cl)nc32)C[C@@H]1O	Helicobacter pylori		26695	200 µM, partially precipitated		growth inhibition	inhibited
O=C(Nc1ccccc1Nc1ccccc1)c1nccnc1Cl	Valsa mali	mycelial growth, mycelial growth rate method		50 mg/L		inhibition	13.6%
CCCCCCCCCCCCCC(=O)N[C@H]1C(=O)N[C@@H](CN)C(=O)N[C@@H](CO)C(=O)N[C@@H](Cc2ccc(O)cc2)C(=O)O[C@H]1C	Staphylococcus aureus	time-kill curve	SH1000	at least 2 x MIC, 30 °C		time to bactericidal effect	< 10 min
Fc1ccc2c(c1)c1nc3ccc(Br)cc3c-1cn2Cc1cn(-c2ccccc2I)nn1	Giardia duodenalis trophozoites	UHPLC-Q-TOF-MS, item: PS(19:0/0:0)		IC50, 0.1242 h	relative to: 0.25% DMSO	fold change	3.31
CCOC(=O)C1=C(C)NC2=C(C(=O)CC(C)(C)C2)C1c1ccc(OCC(=O)NN=Cc2cc(Br)c(O)c(Br)c2)cc1OCC(=O)NN=Cc1cc(Br)c(O)c(Br)c1 (stereo not shown)	Proteus vulgaris			concentration not given, 24 h, 37 °C		inhibition zone diameter	5.6 ± 0.1 mm
COc1ccc(-n2c(SCc3cccnc3)nnc2[C@H](Cc2ccccc2)NC(=O)Cc2c(C)[nH]c3ccccc23)cc1	HIV-2		MT-4, wild type		relative to: CC50 over EC50	selectivity index	6
CNCc1ccc2c(c1)N(C(=O)OCc1c(F)c(F)c(F)c(F)c1F)[C@H](CNC(=N)N)[C@H]2NC(=O)C(=O)Nc1ccc(Cl)c(F)c1	HIV-1 JR-FL pseudovirus	viral infection	Cf2Th-CD4/CCR5 cells		relative to: BNM-III-170	potency fold increase	23 fold
CCCCOC(=O)/C=C/c1ccc(O)c(O)c1	Trypanosoma brucei rhodesiense		STIB900 bloodstream forms		relative to: L6 cell cytotoxicity over T. b. rhodesiense activity	selectivity index	36
CN[C@H](CC(C)C)C(=O)N[C@H]1C(=O)N[C@@H](CC(N)=O)C(=O)N[C@H]2C(=O)N[C@H]3C(=O)N[C@H](C(=O)N[C@H](C(=O)O)c4cc(O)cc(O)c4-c4cc3ccc4O)[C@H](O)c3ccc(c(Cl)c3)Oc3cc2cc(c3O[C@@H]2O[C@H](CO)[C@@H](O)[C@H](O)[C@H]2O[C@H]2C[C@](C)(NCc3ccc(C(=O)OCCCCCCN(Cc4ccccn4)Cc4ccccn4)cc3)[C@H](O)[C@H](C)O2)Oc2ccc(cc2Cl)[C@H]1O	Bacillus subtilis	protein synthesis, item: FabL	168	concentration not given, 10 min, at peak effective concentration	relative to: untreated	regulation factor	41.9 ± 3.5
CC(=O)O[C@@H]1[C@@H](OC(C)=O)[C@H](Sc2sc(C(=O)c3ccc(Br)cc3)c(N)c2-c2nc3ccccc3s2)OC[C@H]1OC(C)=O	coxsackievirus B4	plaque reduction		non-toxic dose NG, mean over three titres		viral reduction	66.7%
COc1ccc(-c2nc(-c3ccccc3OC)[nH]c2-c2ccc(OC)cc2)cc1	Schistosoma mansoni		worm couples	10 µM		reduction in egg number	100%
CCn1c(SCc2ccc(Cl)cc2)nc2cc3ccccc3cc2c1=O	coxsackievirus B4	plaque	BGM	concentration not given, non-toxic dose		virus titre reduction	20 ± 4%

For quick reference, copied from above:
Compound	organism	test	test system	conditions	how to read	endpoint	result
CC[C@H](C)[C@H](NC(=O)[C@H](CCC(N)=O)NC(=O)[C@H](Cc1ccccc1)NC(=O)[C@H](CO)NC(=O)[C@H](CS)NC(=O)[C@H](Cc1ccccc1)NC(=O)[C@H](C)NC(=O)[C@H](CCCCN)NC(=O)[C@H](CCCNC(=N)N)NC(=O)[C@H](CCCCN)NC(=O)[C@H](CC(C)C)NC(=O)[C@H](Cc1c[nH]cn1)NC(=O)[C@@H]1CCCN1C(=O)[C@H](CCC(N)=O)NC(=O)[C@H](CC(=O)O)NC(=O)[C@H](Cc1c[nH]cn1)NC(=O)[C@H](Cc1ccccc1)NC(=O)[C@@H]1CCCN1C(=O)[C@H](CS)NC(=O)[C@H](CC(N)=O)NC(=O)[C@H](CC(=O)O)NC(=O)[C@H](CC(C)C)NC(=O)[C@H](CC(N)=O)NC(=O)[C@@H]1CCCN1C(=O)[C@H](CCC(N)=O)NC(=O)[C@@H](NC(=O)[C@H](CCCCN)NC(=O)[C@@H](NC(=O)[C@H](CS)NC(=O)[C@@H](NC(=O)[C@@H](NC(=O)[C@H](CCCNC(=N)N)NC(=O)CN)[C@@H](C)O)[C@@H](C)O)[C@@H](C)O)[C@@H](C)O)C(=O)N[C@@H](Cc1ccc(O)cc1)C(=O)N[C@@H](C)C(=O)N[C@H](C(=O)N1CCC[C@H]1C(=O)N[C@@H](Cc1c[nH]c2ccccc12)C(=O)N[C@@H](CCC(N)=O)C(=O)NCC(=O)N[C@H](C(=O)N[C@@H](CCSC)C(=O)N[C@H](C(=O)N[C@@H](CC(C)C)C(=O)N[C@@H](CO)C(=O)N[C@@H](CCCCN)C(=O)N[C@@H](CO)C(=O)N[C@H](C(=O)N[C@@H](CS)C(=O)N[C@@H](CCC(N)=O)C(=O)N[C@@H](CC(=O)O)C(=O)N[C@@H](C)C(=O)O)[C@@H](C)O)[C@@H](C)O)[C@@H](C)O)C(C)C	HIV-2	viral entry	GHOST-GPR15, ROD10			maximal inhibition	≤ 80%
CCn1c(SCc2cccc(OC)c2)nc2cc3ccccc3cc2c1=O	coxsackievirus B4	plaque	BGM	concentration not given, non-toxic dose		virus titre reduction	0%
